{"data": "Assay results gathered from unrelated publications", "B1": "coatomer subunit alpha, human; sequence looked up; chain MLTKFETKSARVKGLSFHPKRPWILTSLHNGVIQLWDYRMCTLIDKFDEHDGPVRGIDFHKQQPLFVSGGDDYKIKVWNYKLRRCLFTLLGHLDYIRTTFFHHEYPWILSASDDQTIRVWNWQSRTCVCVLTGHNHYVMCAQFHPTEDLVVSASLDQTVRVWDISGLRKKNLSPGAVESDVRGITGVDLFGTTDAVVKHVLEGHDRGVNWAAFHPTMPLIVSGADDRQVKIWRMNESKAWEVDTCRGHYNNVSCAVFHPRQELILSNSEDKSIRVWDMSKRTGVQTFRRDHDRFWVLAAHPNLNLFAAGHDGGMIVFKLERERPAYAVHGNMLHYVKDRFLRQLDFNSSKDVAVMQLRSGSKFPVFNMSYNPAENAVLLCTRASNLENSTYDLYTIPKDADSQNPDAPEGKRSSGLTAVWVARNRFAVLDRMHSLLIKNLKNEITKKVQVPNCDEIFYAGTGNLLLRDADSITLFDVQQKRTLASVKISKVKYVIWSADMSHVALLAKHAIVICNRKLDALCNIHENIRVKSGAWDESGVFIYTTSNHIKYAVTTGDHGIIRTLDLPIYVTRVKGNNVYCLDRECRPRVLTIDPTEFKFKLALINRKYDEVLHMVRNAKLVGQSIIAYLQKKGYPEVALHFVKDEKTRFSLALECGNIEIALEAAKALDDKNCWEKLGEVALLQGNHQIVEMCYQRTKNFDKLSFLYLITGNLEKLRKMMKIAEIRKDMSGHYQNALYLGDVSERVRILKNCGQKSLAYLTAATHGLDEEAESLKETFDPEKETIPDIDPNAKLLQPPAPIMPLDTNWPLLTVSKGFFEGTIASKGKGGALAADIDIDTVGTEGWGEDAELQLDEDGFVEATEGLGDDALGKGQEEGGGWDVEEDLELPPELDISPGAAGGAEDGFFVPPTKGTSPTQIWCNNSQLPVDHILAGSFETAMRLLHDQVGVIQFGPYKQLFLQTYARGRTTYQALPCLPSMYGYPNRNWKDAGLKNGVPAVGLKLNDLIQRLQLCYQLTTVGKFEEAVEKFRSILLSVPLLVVDNKQEIAEAQQLITICREYIVGLSVETERKKLPKETLEQQKRICEMAAYFTHSNLQPVHMILVLRTALNLFFKLKNFKTAATFARRLLELGPKPEVAQQTRKILSACEKNPTDAYQLNYDMHNPFDICAASYRPIYRGKPVEKCPLSGACYSPEFKGQICRVTTVTEIGKDVIGLRISPLQFR", "B2": "human ECM1; sequence looked up; chain ASEGGFTATGQRQLRPEHFQEVGYAAPPSPPLSRSLPMDHPDSSQHGPPFEGQSQVQPPPSQEATPLQQEKLLPAQLPAEKEVGPPLPQEAVPLQKELPSLQHPNEQKEGTPAPFGDQSHPEPESWNAAQHCQQDRSQGGWGHRLDGFPPGRPSPDNLNQICLPNRQHVVYGPWNLPQSSYSHLTRQGETLNFLEIGYSRCCHCRSHTNRLECAKLVWEEAMSRFCEAEFSVKTRPHWCCTRQGEARFSCFQEEAPQPHYQLRACPSHQPDISSGLELPFPPGVPTLDNIKNICHLRRFRSVPRNLPATDPLQRELLALIQLEREFQRCCRQGNNHTCTWKAWEDTLDKYCDREYAVKTHHHLCCRHPPSPTRDECFARRAPYPNYDRDILTIDIGRVTPNLMGHLCGNQRVLTKHKHIPGLIHNMTARCCDLPFPEQACCAEEEKLTFINDLCGPRRNIWRDPALCCYLSPGDEQVNCFNINYLRNVALVSGDTENAKGQGEQGSTGGTNISSTSEPKEE", "note": "Compare with care: the assays were run in different laboratories. “And” joins repeats or separate records; there may be more than shown. Numbers after ± are the reported error.", "chain of UniProt P29055 (whole entry, looked up)": "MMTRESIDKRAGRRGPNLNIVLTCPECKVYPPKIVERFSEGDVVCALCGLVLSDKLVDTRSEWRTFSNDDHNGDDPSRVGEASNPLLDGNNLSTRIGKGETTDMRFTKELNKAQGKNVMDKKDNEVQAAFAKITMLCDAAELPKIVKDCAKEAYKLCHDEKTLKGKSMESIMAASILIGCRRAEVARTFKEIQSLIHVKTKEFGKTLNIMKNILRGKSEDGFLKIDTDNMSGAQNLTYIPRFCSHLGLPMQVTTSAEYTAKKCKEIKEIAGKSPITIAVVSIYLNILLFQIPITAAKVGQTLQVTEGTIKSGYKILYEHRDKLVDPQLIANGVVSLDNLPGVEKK"}
{"Molecule": "regorafenib N-β-glucuronide", "system": "Oatp1b2 knockout mice", "setting": "oral, 10 mg/kg regorafenib", "how to read": "reference: wild-type mice", "quantity": "Cmax", "result": "5.1 fold"}
{"Molecule": "TCCTGAAGGGGCGCCCTAGCTTGGTCCTATCGTCGTCAAGTCAATCGGTCC (dsDNA; 5'-amino-C6 primer)", "tested on": "SUA7 full length assumed (Saccharomyces cerevisiae, UniProt P29055)", "assay": "array", "system": "double-stranded DNA, one strand shown", "setting": "TFIIB alone", "quantity": "Kd", "result": "4.91 ± 1.2 nM"}
{"Molecule": "coproporphyrin I", "system": "human, plasma", "setting": "concentration not given, baseline, endogenous", "quantity": "Cmax", "result": "1.16 ± 0.15 nM"}
{"Molecule": "coproporphyrin III", "system": "human, serum", "setting": "oral, 20 mg ezetimibe, 5 h, geometric mean ezetimibe alone", "how to read": "reference: at 5 h over pre-dose", "quantity": "concentration ratio", "result": 1.23}
{"Molecule": "FNA / CGLSGLGVA-NH2 ([18F]FNA-labelled, C-amide)", "assay": "gamma counting", "system": "peptide, glioblastoma mice, Harderian glands", "setting": "60 min", "quantity": "tissue uptake", "result": "0.4 %ID/g"}
{"Molecule": "[177Lu]Lu-DOTA-TATE", "assay": "radio-HPLC", "system": "PBS", "setting": "24 h, 37 °C, 50 MBq/nmol", "quantity": "intact radiolabelled peptide", "result": "95.7 ± 0.5%"}
{"Molecule": "B1 (coatomer subunit alpha, human)", "tested on": "PP6C (human)", "assay": "co-immunoprecipitation, IP-MS", "system": "CYB5R4 knockout cells", "setting": "concentration not given", "how to read": "reference: CYB5R4 knockout over parental", "quantity": "log2 fold change", "result": -0.35}
{"Molecule": "Teicoplanin", "system": "QC solution", "setting": "2 months, -40 °C, high QC level", "quantity": "recovery", "result": "101%"}
{"Molecule": "coproporphyrin I", "assay": "UHPLC-MS/MS", "system": "human, serum", "setting": "oral, 20 mg ezetimibe, 5 h, geometric mean ezetimibe phase", "quantity": "serum concentration", "result": "1.29 nM"}
{"Molecule": "CTOP", "assay": "RP-HPLC", "system": "HALO Phenyl-hexyl column", "setting": "25 µM, acetic acid/acetonitrile, 10 min gradient", "quantity": "retention time", "result": "5.25 min"}
{"Molecule": "B2 (human ECM1)", "tested on": "CYB5R4 knockout human cells", "assay": "PP4 interaction, 3xFLAG-PP4C IP-MS", "setting": "concentration not given", "how to read": "reference: CYB5R4 KO over parental", "quantity": "log2 fold change", "result": -0.49}
{"Molecule": "caspofungin", "system": "adult ICU patients, mITT, serum", "setting": "dose not given, day 14", "quantity": "alanine aminotransferase", "result": "30.3 U/L"}
{"Molecule": "Polymyxin B", "assay": "LC-MS", "system": "Sprague-Dawley rat, left cortex", "setting": "intracerebroventricular, 0.75 mg/kg, 1 h", "quantity": "concentration", "result": "860 ng/mL and 940 ng/mL and 1310 ng/mL and 5790 ng/mL and 4690 ng/mL and 5200 ng/mL and 4090 ng/mL and 1080 ng/mL"}
{"note": "Excerpt of the above:"}
{"Molecule": "regorafenib N-β-glucuronide", "system": "Oatp1b2 knockout mice", "setting": "oral, 10 mg/kg regorafenib", "how to read": "reference: wild-type mice", "quantity": "Cmax", "result": "5.1 fold"}
